Assay results of several laboratories.
A part holds a random share of what one study measured. Substitutions count along the parent as printed.

Series 1
Target: Interferon regulatory factor 7, full length, phosphomimetic (IRF7, Homo sapiens, UniProt Q92985, residues 1-503, S101K/S471D/S472D/S475D/S476D/S477D/S483D/S484D/S487D)
Technique: protein-binding microarray
Molecule type: double-stranded DNA, one strand shown
Medium: in vitro
Tested at: 250 nM
Setting: 60-bp whole probe
Added: salmon DNA 0.4 mg/ml
Reference: random background probes
Reading: higher = stronger binding
Constant ends, left off below: GCCTAGCAC … GTCTTGATTCGCTTGACGCTGCTG
Target sequence (chain): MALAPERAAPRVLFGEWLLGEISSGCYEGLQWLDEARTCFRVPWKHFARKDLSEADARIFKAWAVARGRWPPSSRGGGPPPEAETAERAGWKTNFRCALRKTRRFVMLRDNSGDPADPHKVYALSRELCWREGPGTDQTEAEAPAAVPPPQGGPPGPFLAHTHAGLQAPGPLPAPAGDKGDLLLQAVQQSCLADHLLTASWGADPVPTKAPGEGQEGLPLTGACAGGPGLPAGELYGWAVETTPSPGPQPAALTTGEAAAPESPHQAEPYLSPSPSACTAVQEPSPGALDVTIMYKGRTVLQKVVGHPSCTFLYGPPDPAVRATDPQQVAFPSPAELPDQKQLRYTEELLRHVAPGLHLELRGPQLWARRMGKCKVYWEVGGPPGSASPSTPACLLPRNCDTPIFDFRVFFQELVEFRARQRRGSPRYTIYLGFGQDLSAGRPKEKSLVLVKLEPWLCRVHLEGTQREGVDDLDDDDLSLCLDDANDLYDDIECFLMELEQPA
`CCCTGAGGAATCCTGCAGCCGTGCTAG` gave a log fluorescence of -0.712 z-score.
`GACGATATCGGGTACCGAGACGTGCTA` has a log fluorescence of -0.283 z-score.
For `TCAACTTTATGTAGGAAACTGTGCTAG`, the log fluorescence was 0.0909 z-score.
`GACGGTCTCCTACTGCTGTCGTGCTAG` gave a log fluorescence of -0.202 z-score.
For `TTTTTTTTCTAACTAAAAATGTGCTAG`, the log fluorescence was 1.3 z-score.
For `TCAATTTTGAGACTCATACTGTGCTAG`, the log fluorescence was 0.275 z-score.
With `TCAGGTATGGCCTATTTAACTGTGCTA` the log fluorescence was -0.681 z-score.
With `GACGGACTGGGTCTCGGGTCGTGCTAG` the log fluorescence was 0.806 z-score.
`GAAGGTCTCGGTCTCGGGACGTGCTAG` gave a log fluorescence of 1.04 z-score.
`GGCGGACTGGGGACTGGGGACGTGCTA` gave a log fluorescence of -0.677 z-score.
`TAGACTCTGTGCTTTCCTCGTGTGCTA` has a log fluorescence of 0.254 z-score.
`CCTCCCCTTGCTTTCCAATTGTGCTAG` has a log fluorescence of 0.0557 z-score.
`TTAGACATCAGACTGGATTAGTGCTAG` gave a log fluorescence of -0.201 z-score.
`TTAGGTCGCCTTCTCCTTTAGTGCTAG` gave a log fluorescence of -0.0303 z-score.
`TTCGGTTTCGGGACTGGGTTAGTGCTA` gave a log fluorescence of 4.92 z-score.
`GACGATTTCGGGAATCGAGACGTGCTA` has a log fluorescence of 1.22 z-score.

Series 2
Target: CCNA2, cyclin fold, Cln2 fusion (human)
Technique: yeast growth competition, sequencing
Medium: yeast
Setting: strong parent motif
Reference: not given
Reading: higher = stronger binding
Parent: PKN2 docking peptide (human); VSAVQKLDFSDTM; partner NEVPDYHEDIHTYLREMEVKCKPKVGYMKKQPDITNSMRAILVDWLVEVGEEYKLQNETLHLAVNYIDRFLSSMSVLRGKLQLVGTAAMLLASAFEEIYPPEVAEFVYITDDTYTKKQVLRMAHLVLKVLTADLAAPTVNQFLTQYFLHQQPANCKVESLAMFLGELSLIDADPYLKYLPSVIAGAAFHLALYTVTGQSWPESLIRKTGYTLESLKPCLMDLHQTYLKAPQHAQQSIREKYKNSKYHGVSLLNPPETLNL
Under “normalised enrichment score”, `VSAVQKLDFSDTE [M13E]` is recorded as 2.14.
For `VSAMQKLDFSDTM [V4M]`, “normalised enrichment score” read 1.38.
`VSAVQKLDFSFTM [D11F]` — result for “normalised enrichment score”: 1.33.
Under “normalised enrichment score”, `VTAVQKLDFSDTM [S2T]` is recorded as 1.89.
Under “normalised enrichment score”, `QSAVQKLDFSDTM [V1Q]` is recorded as 2.
`VSAVQKLAFSDTM [D8A]` — result for “normalised enrichment score”: 0.581.
Under “normalised enrichment score”, `VSAVQKLDFKDTM [S10K]` is recorded as 0.739.
`VSAVQKLLFSDTM [D8L]` — result for “normalised enrichment score”: 1.54.
For `VSAVQKLDFSDTH [M13H]`, “normalised enrichment score” read 2.09.
`VSAVQKLFFSDTM [D8F]` — result for “normalised enrichment score”: 1.06.
`VSAVQKLDFFDTM [S10F]` — result for “normalised enrichment score”: 1.09.
For `VSAPQKLDFSDTM [V4P]`, “normalised enrichment score” read 0.76.
`VSRVQKLDFSDTM [A3R]` — result for “normalised enrichment score”: 0.762.
Under “normalised enrichment score”, `VSPVQKLDFSDTM [A3P]` is recorded as 1.44.
`VSAVQGLDFSDTM [K6G]`: “normalised enrichment score” 0.241.
For `VSAVQKLVFSDTM [D8V]`, “normalised enrichment score” read 1.33.
`VSAVQKLDFSDTF [M13F]` — result for “normalised enrichment score”: 1.28.

Series 3
Target: Histone acetyltransferase KAT6A, winged helix 2, GST fusion (KAT6A, Homo sapiens, UniProt Q92794, residues 85-181)
Technique: protein binding microarray
Molecule type: double-stranded DNA, one strand shown
Medium: in vitro
Tested at: not given
Setting: 8-mer, flanks averaged, mean of 2 arrays, mostly near background
Reference: not given
Reading: higher = stronger binding
Construct (chain): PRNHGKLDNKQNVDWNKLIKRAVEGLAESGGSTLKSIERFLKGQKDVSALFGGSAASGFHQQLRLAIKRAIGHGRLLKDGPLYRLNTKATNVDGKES
For `ACTTCATC`, the E-score was -0.11.
The E-score of `ATCAAAGG` is reported as -0.0921.
`TCAGCAGA` has an E-score of 0.137.
With `TAACTACA` the E-score was 0.0247.
`TATGCTAA` gave an E-score of 0.0188.
The E-score of `CCTCAGTC` is reported as -0.0317.
`GGAGTGAA` has an E-score of -0.0267.
For `AGAGTCTA`, the E-score was -0.211.
`TCATTCCA` has an E-score of -0.0155.
`AGCAACTC` has an E-score of -0.0153.
`AAGGGAAC` gave an E-score of -0.0321.
With `AAAAGAGA` the E-score was 0.0243.
With `GAATTCGC` the E-score was 0.194.
For `ATATAGGC`, the E-score was -0.0767.
`GCTGAGCC` gave an E-score of -0.089.
`AAGCAAAA` gave an E-score of 0.206.
For `ATAGTATG`, the E-score was 0.0306.
For `CAGAACTA`, the E-score was -0.0888.
`AGTCACGG` gave an E-score of 0.0299.
The E-score of `CTAAGTTC` is reported as -0.0939.
The E-score of `CAAACAGA` is reported as 0.113.
For `CACAGCCA`, the E-score was -0.0185.
For `ACATTCTA`, the E-score was -0.123.
The E-score of `GGAAGAAA` is reported as 0.159.
For `AATACCAA`, the E-score was 0.0794.

Series 4
Target: ABI1, truncated, D143A, DHFR fusion (Arabidopsis thaliana)
Technique: DHFR PCA, deep sequencing
Medium: yeast
Setting: methotrexate growth selection, single substitutions
Added: (+)-ABA 0.0091 µM
Reference: wild-type fitted maximum
Reading: higher = stronger binding
Parent: PYL1, truncated, DHFR fusion (Arabidopsis thaliana); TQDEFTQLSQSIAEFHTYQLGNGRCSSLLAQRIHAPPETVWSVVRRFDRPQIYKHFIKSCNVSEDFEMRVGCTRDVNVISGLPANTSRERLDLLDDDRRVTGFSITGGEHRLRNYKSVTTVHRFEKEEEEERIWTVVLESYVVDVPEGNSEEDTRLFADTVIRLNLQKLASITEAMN; partner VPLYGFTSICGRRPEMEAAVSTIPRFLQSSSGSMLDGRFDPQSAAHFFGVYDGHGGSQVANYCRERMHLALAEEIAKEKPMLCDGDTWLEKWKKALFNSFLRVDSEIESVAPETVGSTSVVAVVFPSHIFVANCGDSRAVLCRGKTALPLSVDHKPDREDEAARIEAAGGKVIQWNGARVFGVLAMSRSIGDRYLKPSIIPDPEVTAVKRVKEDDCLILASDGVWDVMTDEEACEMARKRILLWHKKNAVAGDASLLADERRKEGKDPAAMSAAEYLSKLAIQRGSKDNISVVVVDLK
`F47H` — result for “relative binding score”: 14.6%.
`K126L`: “relative binding score” 24.4%.
For `N61H`, “relative binding score” read 46.2%.
For `E151R`, “relative binding score” read 13%.
`M68H` — result for “relative binding score”: -0.572%.
Under “relative binding score”, `L94Q` is recorded as -7.7%.
`V143F`: “relative binding score” 2.44%.
`E4Q` — result for “relative binding score”: 9.15%.
`S11C`: “relative binding score” 23.7%.
Under “relative binding score”, `F47A` is recorded as -2.47%.
`R32H` — result for “relative binding score”: 7.43%.
Under “relative binding score”, `A158I` is recorded as 50.1%.
`D92F`: “relative binding score” 1.42%.
`R111Q`: “relative binding score” 4.13%.
`I162M` — result for “relative binding score”: 2.26%.
`T160W`: “relative binding score” 1.03%.
`V76L`: “relative binding score” 5.27%.

Series 5
Target: RING finger protein unkempt homolog, zinc fingers 1-6, SBP tag (UNK, Homo sapiens, UniProt Q9C0B0, residues 30-357)
UniProt Q9C0B0, sequence (30-357, looked up): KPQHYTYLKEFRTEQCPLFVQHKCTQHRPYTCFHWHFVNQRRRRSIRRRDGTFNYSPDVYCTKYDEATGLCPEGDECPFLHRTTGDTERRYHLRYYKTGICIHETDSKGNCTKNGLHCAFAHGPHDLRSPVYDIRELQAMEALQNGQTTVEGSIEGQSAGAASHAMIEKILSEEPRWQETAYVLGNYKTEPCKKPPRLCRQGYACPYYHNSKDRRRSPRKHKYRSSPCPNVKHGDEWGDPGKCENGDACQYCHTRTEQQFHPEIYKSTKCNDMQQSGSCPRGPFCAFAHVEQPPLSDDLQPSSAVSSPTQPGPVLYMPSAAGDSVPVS
Technique: RNA Bind-n-Seq
Molecule type: RNA
Medium: in vitro
Tested at: 100 nM
Setting: RNA with constant flanks, vertebrate orthologous sites, ends assumed
Reference: input RNA pool
Reading: higher = stronger binding
Constant ends, left off below: GGGAGUUCUACAGUCCGACGAUC … CAACAGAGGAUUGAGCAUCA
The bound/input enrichment of `GACGCUUUGAUGUAAAAUUUGAAAUAAAGAGCAGCUGAUCACAAGCACAAUUUCCCCCCUAGCCAUUUAAAAAAGUUAAAAAUAUAAAAAACAAAAAACUACUAGUCUUGAACAAACUGU` is reported as 2.62 ratio.
With `AUUUUUAAAAGUUUUUUUAAUUUAAUUUUUCCUUUUGGGGGUAAAGUUUGCUCUACCAAAUAGUGAUCGUAACAAAUUGAUCUGUUUUGGAUGUUGCUAUAGUGACAUGCAGUUAUAUAU` the bound/input enrichment was 0.58 ratio.
`GGUCAUUUAUAGCAAUUAGAGCGGGUUGCCCCUCUACUUCUCCCAAGAAGAAAUCCCAAACAGAUUCCUUUCAUGUCGGAUUAUACUGUUCUGAUUUUAUUUUCUAUUUUUACAUAUACA` has a bound/input enrichment of 0.793 ratio.
`CUUUUAAUCGACUAUGUCUGUAAAUGUAUAUUGAGAGAAUUGAAGUAUUUAUAAACAGAGUGAUUUAUUUAAGGAAAAGCUUAUCCCUCUUUCAUAUGGUGGUCUGUGUUAAUUCCAUUU` gave a bound/input enrichment of 0.623 ratio.
`UAUAAUUAUGAAAAUCUAAAGGAUUUUUAAUGUUUAAUUUCCCCCAGCAUCUAUAUUAAGAUCUCUUUUUCCAGGCAGAUCAUUCAGAGUGUGCGAGUGUGUGUGCACAUGUUACAAAGA` has a bound/input enrichment of 0.465 ratio.
`GGGCGGCUGGUGGGGAAAUCCCCUGCCUUGGCCUUGCCUCCCCUUCCUGCCACCUGCCCCUAGUUAUUUUUUUUUUUUUACCACCAUGUGAUUAAGGUCGGCGCUGCCUCCCCCGACCCA` gave a bound/input enrichment of 9.14 ratio.
`UACUGGUAGGAAAUAUGUCUACCCAGAGAAGUAAUGCUCUUUAAAUAUUAUUUAAUAAUUCAGCUACAGUCUUUGCAAAGUAUUAAAUUGUAUUUCAAGCAGUUGAAUAAAUUGUAGAGU` has a bound/input enrichment of 0.187 ratio.

Series 6
Target: Microphthalmia-associated transcription factor, full length (MITF, Homo sapiens, UniProt O75030-10, residues 1-413)
Technique: protein-binding microarray
Molecule type: double-stranded DNA, one strand shown
Medium: in vitro
Tested at: not given
Setting: k-mer, scored over probes, only values ≥0.25
Reading: higher = stronger binding
Residues (chain): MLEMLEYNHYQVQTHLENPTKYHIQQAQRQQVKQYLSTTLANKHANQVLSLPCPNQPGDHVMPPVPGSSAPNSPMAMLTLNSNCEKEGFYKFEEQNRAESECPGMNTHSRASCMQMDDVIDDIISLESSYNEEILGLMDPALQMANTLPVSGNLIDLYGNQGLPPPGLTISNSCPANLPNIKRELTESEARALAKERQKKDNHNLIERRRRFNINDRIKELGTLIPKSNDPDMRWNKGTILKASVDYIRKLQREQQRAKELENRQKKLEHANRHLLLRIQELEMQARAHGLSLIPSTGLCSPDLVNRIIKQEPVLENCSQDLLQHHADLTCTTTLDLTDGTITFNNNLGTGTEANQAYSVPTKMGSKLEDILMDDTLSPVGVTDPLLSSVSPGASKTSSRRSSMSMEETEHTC
The E-score of `CACGCGA` is reported as 0.409.
`ATCATGC` gave an E-score of 0.38.
`CCCGTGC` has an E-score of 0.388.
`GTGGTCA` has an E-score of 0.34.
For `CGTCACG`, the E-score was 0.427.
`GTGACAC` gave an E-score of 0.328.
For `CGTGCCC`, the E-score was 0.261.
`GTCATCA` gave an E-score of 0.265.
For `CATGCGC`, the E-score was 0.307.

Excerpt of the above (series 6):
`ATCATGC` gave an E-score of 0.38.
`GTGGTCA` has an E-score of 0.34.
For `CATGCGC`, the E-score was 0.307.
For `CGTGCCC`, the E-score was 0.261.
The E-score of `CACGCGA` is reported as 0.409.
`CCCGTGC` has an E-score of 0.388.
For `CGTCACG`, the E-score was 0.427.
`GTCATCA` gave an E-score of 0.265.
`GTGACAC` gave an E-score of 0.328.
